{"data": "Measurements from different studies", "note": "Every numbered part comes from another study and shows a few of its results, in no order."}
{"data": "Block 1", "target": "Interferon regulatory factor 7, full length, phosphomimetic (IRF7, Homo sapiens, UniProt Q92985, residues 1-503, S471D/S472D/S475D/S476D/S477D/S483D/S484D/S487D)", "technique": "protein-binding microarray", "form": "double-stranded DNA, one strand shown", "medium": "in vitro", "tested at": "2200 nM top", "setting": "60-bp whole probe", "with": "salmon DNA 0.4 mg/ml", "reference": "random background probes", "reading": "higher = stronger binding", "constant ends, left off below": "GCCTAGCAC … GTCTTGATTCGCTTGACGCTGCTG", "UniProt Q92985, sequence (whole entry, unmodified, looked up)": "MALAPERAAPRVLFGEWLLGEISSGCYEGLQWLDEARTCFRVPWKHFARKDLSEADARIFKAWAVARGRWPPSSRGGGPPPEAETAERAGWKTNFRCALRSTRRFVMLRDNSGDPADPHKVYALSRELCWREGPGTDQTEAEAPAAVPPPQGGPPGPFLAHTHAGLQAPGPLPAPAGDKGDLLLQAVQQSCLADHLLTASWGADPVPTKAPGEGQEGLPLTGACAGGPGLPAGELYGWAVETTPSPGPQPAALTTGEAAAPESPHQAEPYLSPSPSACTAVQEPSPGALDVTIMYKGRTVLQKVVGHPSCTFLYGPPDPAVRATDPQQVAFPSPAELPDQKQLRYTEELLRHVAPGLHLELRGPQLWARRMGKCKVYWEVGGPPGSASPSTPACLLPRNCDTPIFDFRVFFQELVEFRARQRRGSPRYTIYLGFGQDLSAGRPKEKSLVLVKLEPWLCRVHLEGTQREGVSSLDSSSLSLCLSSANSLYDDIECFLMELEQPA"}
{"Oligonucleotide": "TAAGCAAAAATGATTGGTTGGTGCTAG", "fitted relative affinity": "-0.292 z-score"}
{"Oligonucleotide": "TTTTATGAAGGCCGGGGAGGGTGCTAG", "fitted relative affinity": "-0.199 z-score"}
{"Oligonucleotide": "TTAGATTCAAGTTTCGATTAGTGCTAG", "fitted relative affinity": "5.4 z-score"}
{"Oligonucleotide": "TTAAGTATCGGACTGGGTTAGTGCTAG", "fitted relative affinity": "0.00798 z-score"}
{"Oligonucleotide": "GACGGACTACTTATCCTGACGTGCTAG", "fitted relative affinity": "0.372 z-score"}
{"Oligonucleotide": "GTAGGACTGGACACTGGGTTAGTGCTA", "fitted relative affinity": "-0.851 z-score"}
{"Oligonucleotide": "GACGGTCTCGGTCTCGGGACGTGCTAG", "fitted relative affinity": "-0.148 z-score"}
{"Oligonucleotide": "TCAACATTGCACAATCTTACTGTGCTA", "fitted relative affinity": "0.493 z-score"}
{"Oligonucleotide": "TTAGAACTGGCGACTGGATTAGTGCTA", "fitted relative affinity": "-0.672 z-score"}
{"Oligonucleotide": "TTAGGTTGCGGACTGGGTTAGTGCTAG", "fitted relative affinity": "-0.311 z-score"}
{"Oligonucleotide": "TCATCTTTTATTTTTTTACTGTGCTAG", "fitted relative affinity": "1.28 z-score"}
{"Oligonucleotide": "TTAGGTCTCCTTATGCTTTAGTGCTAG", "fitted relative affinity": "0.653 z-score"}
{"Oligonucleotide": "CAAGTGGAGCCCAGGCCAGAGTGCTAG", "fitted relative affinity": "-1.3 z-score"}
{"Oligonucleotide": "GACGGACTCGACACTGGGGACGTGCTA", "fitted relative affinity": "-0.592 z-score"}
{"Oligonucleotide": "GACGCACTGGGTCTCGGGACGTGCTAG", "fitted relative affinity": "-0.501 z-score"}
{"Oligonucleotide": "TTAGGTCTCGGACGGGGTTAGTGCTAG", "fitted relative affinity": "-0.24 z-score"}
{"Oligonucleotide": "GACGAATTCAGTTCCGAGACGTGCTAG", "fitted relative affinity": "0.577 z-score"}
{"Oligonucleotide": "TCACTTTTCATTACTGCACTGTGCTAG", "fitted relative affinity": "3.52 z-score"}
{"Oligonucleotide": "GACGGACTGGGCCTCGGGACGTGCTAG", "fitted relative affinity": "-1.16 z-score"}
{"data": "Block 2", "target": "Histone acetyltransferase KAT6A, winged helix 1, GST fusion (KAT6A, Homo sapiens, UniProt Q92794, residues 1-85)", "technique": "protein binding microarray", "form": "double-stranded DNA, one strand shown", "medium": "in vitro", "tested at": "not given", "setting": "8-mer, flanks averaged, mean of 2 arrays, mostly near background", "reference": "not given", "reading": "higher = stronger binding", "Residues (chain)": "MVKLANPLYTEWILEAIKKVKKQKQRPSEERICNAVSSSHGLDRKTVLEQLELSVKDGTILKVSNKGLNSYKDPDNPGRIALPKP"}
{"Oligonucleotide": "CGATTGAC", "E-score": -0.0243}
{"Oligonucleotide": "AATCTCAC", "E-score": -0.0741}
{"Oligonucleotide": "ATTTGACC", "E-score": -0.0673}
{"Oligonucleotide": "GGTACACC", "E-score": 0.223}
{"Oligonucleotide": "CACCTGCA", "E-score": -0.298}
{"Oligonucleotide": "ACAGCCAC", "E-score": -0.15}
{"Oligonucleotide": "AAGTATGC", "E-score": 0.0396}
{"Oligonucleotide": "GAGAAGAA", "E-score": -0.206}
{"Oligonucleotide": "AGGAAATC", "E-score": -0.121}
{"Oligonucleotide": "ACATTTCG", "E-score": -0.0987}
{"Oligonucleotide": "GTAACACA", "E-score": 0.0332}
{"Oligonucleotide": "CTGATAAA", "E-score": -0.181}
{"Oligonucleotide": "ATGTCGCA", "E-score": 0.0612}
{"Oligonucleotide": "CGTGGCTA", "E-score": -0.138}
{"Oligonucleotide": "CGCTACCG", "E-score": 0.391}
{"Oligonucleotide": "AGTGGGAG", "E-score": -0.276}
{"Oligonucleotide": "GCGCGCAA", "E-score": 0.438}
{"Oligonucleotide": "AAGTTCCG", "E-score": 0.0933}
{"Oligonucleotide": "CGGGCTTA", "E-score": 0.22}
{"Oligonucleotide": "CCCAACAC", "E-score": -0.104}
{"Oligonucleotide": "ATGCCGCC", "E-score": 0.438}
{"Oligonucleotide": "AACAAAGG", "E-score": -0.116}
{"Oligonucleotide": "ATAGGACA", "E-score": -0.136}
{"Oligonucleotide": "CGGTGACC", "E-score": 0.0645}
{"Oligonucleotide": "CCTGGGCC", "E-score": 0.0611}
{"data": "Block 3", "target": "Protein max, full length (MAX, Homo sapiens, UniProt P61244-2, residues 1-151)", "technique": "protein-binding microarray", "form": "double-stranded DNA, one strand shown", "medium": "in vitro", "tested at": "not given", "setting": "k-mer, scored over probes, only values ≥0.25", "reading": "higher = stronger binding"}
{"Oligonucleotide": "ACGTGCCT", "E-score": 0.398}
{"Oligonucleotide": "CATGACAA", "E-score": 0.267}
{"Oligonucleotide": "ATGCTCGC", "E-score": 0.277}
{"Oligonucleotide": "ACACACAT", "E-score": 0.349}
{"Oligonucleotide": "AATCATGC", "E-score": 0.389}
{"Oligonucleotide": "GACGTGGC", "E-score": 0.265}
{"Oligonucleotide": "CACGCAGG", "E-score": 0.297}
{"Oligonucleotide": "CCATCACG", "E-score": 0.275}
{"Oligonucleotide": "CGCTGCCA", "E-score": 0.266}
{"Oligonucleotide": "AGACACGA", "E-score": 0.351}
{"Oligonucleotide": "ACGCACAT", "E-score": 0.392}
{"Oligonucleotide": "ACATGACA", "E-score": 0.355}
{"Oligonucleotide": "GTGTTGCA", "E-score": 0.31}
{"Oligonucleotide": "CATGTCGG", "E-score": 0.267}
{"Oligonucleotide": "CATGAGGC", "E-score": 0.396}
{"Oligonucleotide": "ACATGGCT", "E-score": 0.315}
{"Oligonucleotide": "AGTCCACG", "E-score": 0.348}
{"Oligonucleotide": "CATGGAAC", "E-score": 0.291}
{"Oligonucleotide": "ACATGTCT", "E-score": 0.266}
{"Oligonucleotide": "CCACACCC", "E-score": 0.292}
{"Oligonucleotide": "ACACGCGT", "E-score": 0.458}
{"Oligonucleotide": "ACGTGGGA", "E-score": 0.438}
{"Oligonucleotide": "AGCATGCA", "E-score": 0.42}
{"Oligonucleotide": "CGTGGAGC", "E-score": 0.386}
{"Oligonucleotide": "CGCACGCA", "E-score": 0.365}
{"data": "Block 4", "target": "RNA binding protein fox-1 homolog 2, RRM domain, GST-SBP tag (RBFOX2, Homo sapiens, UniProt O43251-10, residues 100-194)", "technique": "RNA Bind-n-Seq", "form": "RNA", "medium": "in vitro", "tested at": "365 nM", "setting": "natural RNA segment, single round, ends assumed", "reference": "no-protein control", "reading": "higher = stronger binding", "constant ends, left off below": "GGGAGUUCUACAGUCCGACGAUC … UGGAAUUCUCGGGUGCCAA", "Construct (chain)": "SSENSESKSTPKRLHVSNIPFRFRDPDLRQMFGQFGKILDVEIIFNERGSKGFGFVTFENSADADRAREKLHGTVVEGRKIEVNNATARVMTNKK"}
{"Oligonucleotide": "AACAGUAAUCAAUCUAUCACUGUUGAAGUCCUGGUUUUCUCAACCAAAUUUUAAGUCUUUCCCAGGUAUGUCAGUCGAGUUGCCAUGAAUCCUCACCUGUAGGAGUUUCU", "RBNS enrichment (R)": 0.332}
{"Oligonucleotide": "UAAAAUCUCAUUACUAUCUAUUAUUUAGUUCUAACACAGAAGCUUUAAAAAUACAUAGUCAUCCAAGGUUUUCUAAAAAUUGAAAUCAUAUGUUGGGAAUGGUAAAAAGG", "RBNS enrichment (R)": 0.496}
{"Oligonucleotide": "UCCAUCAGGGUUUCUGCUGUUAGAAACAGGCCAAUUAUCUGCCAGGUGAAGGAAGGCAUCCCUUGUGGGGCAUUUCACUUCUUCCCACUCCCCAAAUAAUGUUACACAUG", "RBNS enrichment (R)": 0.35}
{"Oligonucleotide": "CCUUGAUCCUCAGGCUGCACCUCUGGCAAAUGGGAGAAUGCGGCUCCUUUUGACUUCAAGGGAUCUUUGUGGGAACCAAUGAGAAAAUGUGUGUGAAGAUAGCUUUUUGG", "RBNS enrichment (R)": 1.54}
{"Oligonucleotide": "AACCAGGAGUCACUGAGCCAAUGACUUUACCAGCUGCUGACUAAUCUUCAUCACCACUGUAGAUUUUGCUGCAUGUGCAGGUCCUCUAUUUUUAAUUGCUGUUUUCGUUG", "RBNS enrichment (R)": 1.33}
{"Oligonucleotide": "CUCCCUAGUCACCUCCAUUAACCACAGACUAUGUAGCGCUGGCCCUAGCCUCUGGCAGAGCCUGUUCCUGGCCGAACUGUGGAUACAGCUGGAGGGUCAGGAACUGUUAC", "RBNS enrichment (R)": 0.323}
{"Oligonucleotide": "CCCCGACGCCCCCCUUGGCACAAGUCAGAUGAAGCACGUUCUGCCGGGGAGGCCCUCACCUUCCAGAGAGGACAGACACAGAUUUCCUGCUGGGGGAGGGAGGAGUCCAC", "RBNS enrichment (R)": 1.43}
{"Oligonucleotide": "GAAUAUCCACCUUCAUUUCAACAGUUCCUUGGUUACACACUCAAUCUUUACGUUUGUACUGCUUACCUUUACUUUCUCCACAACAGAGACAAGCAGAUUGGUUGAACCUU", "RBNS enrichment (R)": 0.48}
{"note": "For quick reference, copied from above (block 3):"}
{"Oligonucleotide": "CATGACAA", "E-score": 0.267}
{"Oligonucleotide": "GTGTTGCA", "E-score": 0.31}
{"Oligonucleotide": "CATGGAAC", "E-score": 0.291}
{"Oligonucleotide": "CCATCACG", "E-score": 0.275}
{"Oligonucleotide": "ACATGTCT", "E-score": 0.266}
{"Oligonucleotide": "ACATGGCT", "E-score": 0.315}
{"Oligonucleotide": "ACACACAT", "E-score": 0.349}
{"Oligonucleotide": "CGTGGAGC", "E-score": 0.386}
